Results collected from several papers.
A part holds a random share of what one study measured.

Sample 1 — technique: RNAcompete; molecule type: RNA; medium: in vitro; tested at: 20 nM; notes: 7-mer, probes averaged, single round; relative to: mean of 7-mers; reading: higher = stronger binding
Target: PABPC1L2, full length, GST fusion (mouse, UniProt A0ABA7IW68)
Oligonucleotide | 7-mer Z-score
AGCCCUU | -0.0591
GUAGGGG | 0.0406
ACAGCCA | 0.148
UGCAAAG | 0.0207
CUAAGAA | 0.0551
AUUUGCA | -0.26
UCACAAA | 1.23
CGAGACA | 0.233
GAAGGUG | 0.0497
CCUCACC | -0.347
UCAGAGG | 0.0424
CAAUCAG | 0.0569
AGCGUCG | -0.349
CAUGGGA | 0.138
AUAAUUG | 0.037
ACGACUG | -0.00652
UACGGAU | 0.0297
UACAUUC | -0.161
GUUUAGC | -0.307
UAGACCU | -0.166
UAGCUGG | -0.0573
CCGAGGA | -0.0844
CAAUCGG | 0.0243
CCGUCUU | -0.378
GACUUCG | -0.219

Sample 2 — technique: RNA Bind-n-Seq; molecule type: RNA; medium: in vitro; tested at: 100 nM; relative to: input RNA pool; reading: higher = stronger binding
Target: RING finger protein unkempt homolog, zinc fingers 1-6, SBP tag (UNK, Homo sapiens, UniProt Q9C0B0, residues 30-357)
Sequence of UniProt Q9C0B0 (30-357, looked up): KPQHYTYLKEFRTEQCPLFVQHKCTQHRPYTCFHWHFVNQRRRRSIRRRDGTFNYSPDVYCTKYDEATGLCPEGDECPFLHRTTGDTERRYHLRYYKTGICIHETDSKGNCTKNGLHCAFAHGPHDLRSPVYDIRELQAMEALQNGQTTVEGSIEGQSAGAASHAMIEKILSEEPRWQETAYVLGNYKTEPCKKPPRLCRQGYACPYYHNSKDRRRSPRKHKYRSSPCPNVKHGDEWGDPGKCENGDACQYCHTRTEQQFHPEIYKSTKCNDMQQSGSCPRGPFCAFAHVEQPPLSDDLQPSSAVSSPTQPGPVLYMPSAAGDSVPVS
Notes: RNA with constant flanks, vertebrate orthologous sites, ends assumed
All sequences stand within: GGGAGUUCUACAGUCCGACGAUC … CAACAGAGGAUUGAGCAUCA
Oligonucleotide | bound/input enrichment [ratio]
UUGGGACCAGCUCUCUGAAUAGAAAUAGUAGUAAAAAAACCAAGCAAAAUGAUAUUUGUAUAGAAAAAACAGAAGCUAAAUCAUGUAAAGUAAAUGCUGCCAGUGUUCCAGGCCCUAAAG | 1.78
CUAGUCUUCCACUUAGGGUUGGCCUCAAAUCUAUAGGAUUUAUGACAAAUGUAUCAUAUCUAUUAAUAGUUGAGUUUAAUAUUUUUAUUCACCUAUAAAUAAAGAUGGCAUCUUCUCCAU | 0.281
AACUAAGAACUCUUGCAGUCUUAGAUGUUAUAAAAUAUAUAUCUGAAUUGUAAGAGUUGUUAGCACAGGUUUCUUUUUUUUUUUUUUAAGUACUUGUUUUGGGUACAAGGCAUUUCUGAA | 0.237
AAUAGUUUUAAGCUUGUUUGCACAGCUUUUUUUUUCCAUUGGAAAUGGAAUCCAUUGCCUUAGGUCUUUUUAAAUAGUGUAUUGUUAUCGUUGGGCUGGCUCUACGCUUGAAAUCCAGUU | 2.06
UUGGGACCAGCUCUCCAAAUAAGAAUAGUAGUAAAAAAAAUAAGCAAAAUGAUAUUUGUAUAGAAAAAACAGAAGUUAAAUCAUGUAAAAUAAAUGCUGCCAACAUAGCAAGCCCUAGAG | 2.88
UUCAGGCACAACUGACUGGUUCACAGCAUUCCUUACACAGUUAUCUAUCAAACGCAAGUGUGGUUAAUUUUCAGGAAACAAGCAGGCAGUCAUCUUUAUCCUGUAGCCCUAUUGGAGAUU | 1.04
CUCCUCUUAAUCCCAUCUCAUCUGUUUCAUAGUGCUGAAAUUCCAUCUUCAGCCUUAUUUUUAGCGAACUUAUUCUAAUUCUAGAGAAACUUCCAGUGGAUACUGUGAGCUAUAUGGAGA | 1.3
GCAAUGAAAAAGCAGCCCUUCUCCCAGCCCCCUUUUCACUAGGAGAUACAAACGUUACCAUAGAAGAGCAAUUAAACUCAGUAAAUUUAUCUUUUCAGGAUGAUCCAGACUCCAGUACCA | 1.28
CGCCGCCAUGGUGGACGGCUCUGAGCUGAAGAAAGUGCGAUCCAACUCCCGCGUCUACCACCGCUACUUCCUCCUGGACGCCGACAUGCAGUCUCUGAGAUGGGAGCCCACCAAGAAGGA | 0.366
CUUAGUUAGAGCUUACCAUAUAUUUCAUAAAGGAGAAUCUUUAUAAUUUUGUUUGUCAUACAGUAUUUUGGAAUUUGUAUAAUGAGGAUGUUUAGAAGCCAUAUUAGUGGCUUUUUUUAA | 0.451
UUUCGUUGUACUGCAAAUCAUCCUCGCUUUAAGCUAGCCGCCGUGAUUACUAGUCUGUGCUAACAGAAUCAUUUACUACUACCUUUUAAUUAUGUGCUUUGUCUGAUACCUGAAACCAGU | 0.867

Sample 3 — technique: RNA Bind-n-Seq; molecule type: RNA; medium: in vitro; tested at: 200 nM; notes: whole 134-nt RNA, ends assumed; with: 150 mM LiCl; relative to: input library; reading: higher = stronger binding; each molecule: 7-deaza-guanosine replaces G
Target: Ras GTPase-activating protein-binding protein 1, full length (G3BP1, Homo sapiens, UniProt Q13283)
Sequence of UniProt Q13283 (whole entry, looked up): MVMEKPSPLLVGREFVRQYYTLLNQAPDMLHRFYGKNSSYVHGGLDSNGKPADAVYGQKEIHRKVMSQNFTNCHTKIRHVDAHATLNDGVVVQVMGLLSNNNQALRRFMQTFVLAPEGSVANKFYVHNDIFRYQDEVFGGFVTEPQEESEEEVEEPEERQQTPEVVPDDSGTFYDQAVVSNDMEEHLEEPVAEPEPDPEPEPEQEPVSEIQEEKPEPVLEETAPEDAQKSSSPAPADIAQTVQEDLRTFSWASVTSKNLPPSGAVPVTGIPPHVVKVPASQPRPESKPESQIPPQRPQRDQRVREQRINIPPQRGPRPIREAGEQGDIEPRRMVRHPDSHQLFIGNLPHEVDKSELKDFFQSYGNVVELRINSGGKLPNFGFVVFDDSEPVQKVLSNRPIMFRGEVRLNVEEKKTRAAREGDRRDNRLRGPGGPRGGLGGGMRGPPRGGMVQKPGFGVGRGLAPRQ
All sequences stand within: GGGAGUUCUACAGUCCGACGAUC … UGGAAUUCUCGGGUGUCAAGG
Oligonucleotide | log2 enrichment
UCAAGUCCUGUGCUACACAUCGUAUGUACCGAAUCGGGUUUGGGAGGGAAAGGGAAAGUAUUAUGUUACGCCGUUCGGAUCUGCACUUCC | -0.945
UCCUCAAGUCCUGUGCUACACAUCGUAUGUACCGAAUCGGUGGUGGGGUGGGAAAGUAUUAUGUUACGCCGUUCGGAUCUGCACUUCCAG | 0.994
GAGCUGGAAGCUAUCAAAGCUCGAGUCAGGGAGAUGGAGGAAGAAGCUGAGAAGCUAAAGGAGCUACAGAACGAGGUAGAGAAGCAGAUG | -0.15
UCAAGUCCUGUGCUACACAUCGUAUGUACCGAAUCGGGAAAAAGGGUGGGAGGGAAAGUAUUAUGUUACGCCGUUCGGAUCUGCACUUCC | -0.323
UAGAUAUCCAUAGAAAAGAGAACUCUGGAGCUGCAGAGAAGCCUGUCACCAUCCAUGCCACCCCAGAGGGGACUUCUGAAGCAUGCCGCA | -0.823
UGUGCUACACAUCGUAUGUACCGAAUCGGGAAAAAAAGGGGAAAAAAAGGGGAAAAAAAGGGAAAGUAUUAUGUUACGCCGUUCGGAUCU | 0.339
CCUCAAGUCCUGUGCUACACAUCGUAUGUACCGAAUCGGAAAGGAGGAAAGGAAAGUAUUAUGUUACGCCGUUCGGAUCUGCACUUCCAG | -0.169
UGUUUAUCCAACAUAUGAUUUUGCCUGCCCCAUAGUUGACAGCAUCGAAGGUGUUACACAUGCCCUGAGAACAACAGAAUACCAUGACAG | 0.126
GUGCUACACAUCGUAUGUACCGAAUCGGGGAAAAAAAGGGGAAAAAAAGGGGAAAAAAAGGGGAAAGUAUUAUGUUACGCCGUUCGGAUC | 0.427
CUGUGCUACACAUCGUAUGUACCGAAUCGGGGUUUUUUUGGGGUUUUUUUGGUUUUUUUGGGAAAGUAUUAUGUUACGCCGUUCGGAUCU | 1.5
CAAGUCCUGUGCUACACAUCGUAUGUACCGAAUCGGGGAAAGGGAAAGGAAAGGGGAAAGUAUUAUGUUACGCCGUUCGGAUCUGCACUU | -0.37

Sample 4 — technique: RNA Bind-n-Seq; molecule type: RNA; medium: in vitro; tested at: 365 nM; relative to: no-protein control; reading: higher = stronger binding
Target: RNA binding protein fox-1 homolog 2, RRM domain, GST-SBP tag (RBFOX2, Homo sapiens, UniProt O43251-10, residues 100-194)
Notes: natural RNA segment, single round, ends assumed
All sequences stand within: GGGAGUUCUACAGUCCGACGAUC … UGGAAUUCUCGGGUGCCAA
Residues (chain): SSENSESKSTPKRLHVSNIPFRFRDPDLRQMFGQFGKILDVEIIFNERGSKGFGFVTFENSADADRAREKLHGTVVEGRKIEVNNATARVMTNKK
Oligonucleotide | RBNS enrichment (R)
UAUUGAGAAAAGGUUGUAGGAAGCCUCACAAGAGACUUUUGACAAUUCUGAGGAACCUUGUGCCCAGUUGUUACAAAGUUUAAGCUUUGAACCUAACCUGCAUCCCAUUU | 1.12
AAAAUAGACUACUGCGAUUGAAAUGAACUCAAUAUGUAGUUAAGUUAUAGUUUUCUUCAAUGUAUUUUUAGUUACUUGGGUCACAAAUGUUCAAUUUCAGCAUAUUUUAG | 0.733
UCAGACCAGUUAGCACAGUAUUCUCUCAUCUGUGUCACUUUGUAAAACUAACUGUACUCUGUAUUUCUUAUUUGUACAUAUCAAUGUGAGAAAUCUCCCUUUUUUAUGUU | 0.455
CUGUGGAUUGUUUUUUACUUUUCCUUUUAAACCGGUUCGUAUAUAUUUUUCUUCGCUGUUACGAAUUUACAGCAGCAUUUGUACAUGUAAAAUUAAAGGCUAUUUUCUGG | 2.31
AUUCACUGCUGCCCUGACUCUUCACCAUCUUUCUUUAGCAAGGUAUUUUGAGCCAUUAAUGAUUUUGGGUUUUUUAAUCCAGAAGGUAUAUAAAAGCCUUUUCAGAGUUU | 0.603
UUAGAAACCUCGUGGGCAGAAGCAUCGAACGACCUCUGAGUCACCCUUAGUCUCCAAGGUCAUCACCCCACCCACUCCCAUCAGUGUGGGCCUUGCUGCCAUUCCAGUCA | 0.286
GUAUCUUACUGUUUGGUUAAGGCACUAAUUUUACUUACCUAUUAGAUUUUGAAAGUAUCUGAGAUAUACAAAUCUCCCUGUAGGAAAUGUGAAAGAAAAGCACAACAAAA | 0.356
CUAGGGCCGCCCCUCUGGAAAGGUUCCAUGUGUCUCCAUCCCCAUCCCUUACUCUUCGGGUCAGCUGUUGAGAAGAGGCGGGUUUUCUUCAUUGGCCUAGAUUUUGCGGC | 0.376
GUUUCAGUUUUGAAGUGUGUACUUUCUCCUCUGUGUGUGCCAAUUACAUAUUAGAGAACAAGGAAUGUGUACUUUGGUGGCUUUGAACCAAGAAAAGGUUUUAAGCCUAC | 0.277
GGGUCGCCUGCUACCCGACUGAUGUCCGUUGAGGGCUGCAGUCAGAGGCCCUGGACAGAAGCUCCAGAUAGGCCCCUAGAACAUGAAGCAGUUUGCUCUGUGCGUCCACG | 0.386
UCUUCUCUUAAUCGGAAUCGUGAUGGUGUUGGAUUAUUUCAAUGGUGGGGUUAAUAUAGCAUGUUAUCCUGUCUAUCUUUUAAAGAUUUCUGUAUAAGACUGUUGAGCAG | 3.03
CUCUGAUGAAUAAAGACCAUGAGUGGAGUUCCUUAACUCAGGCUUUUGUGAGUAGUUUACUAAGGAACUGAAAAUGGUCCCCUUUGUCCAAGCUGAGCUGCUAGGGAAUC | 0.507

Sample 5 — technique: protein-binding microarray; molecule type: double-stranded DNA, one strand shown; medium: in vitro; tested at: not given; reading: higher = stronger binding
Target: Transcription factor SOX-2, HMG box (SOX2, Homo sapiens, UniProt P48431, residues 19-118)
Sequence of UniProt P48431 (19-118, looked up): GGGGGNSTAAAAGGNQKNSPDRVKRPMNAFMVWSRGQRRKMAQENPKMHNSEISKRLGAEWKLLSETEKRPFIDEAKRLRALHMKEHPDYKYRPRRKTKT
Notes: k-mer, scored over probes, only values ≥0.25
Oligonucleotide | E-score
ATATGAA | 0.282
ACTAAAT | 0.264
CTAACAA | 0.265
AAAATGA | 0.254
AATCAAA | 0.284
ACGGCCT | 0.325
GTATTCA | 0.357
CGCACAA | 0.264
ATGAAAA | 0.277
ACATATA | 0.324
AATTTAT | 0.333
AAGAATT | 0.351
AATTCTG | 0.279
ATTATGC | 0.369
AAAGGGA | 0.274
AGCTGAT | 0.314
TACAAAA | 0.252
GTCAATA | 0.39
AATACTA | 0.325
AATTGTG | 0.433
AAATAGA | 0.268
CAATTTA | 0.321
ATTTATA | 0.306
AATTTAC | 0.251
AATAGCG | 0.252

Sample 6 — organism: Saccharomyces cerevisiae; observed: pheromone growth arrest; technique: yeast competitive growth sequencing; molecule type: peptide; strain: no Cln2 overexpression; notes: peptide tiling library; reading: direction not given
Molecule | enrichment score
GQLVIPLDELTLDTSF | 0.982
SFLIEYEFLIPPSLKP | 0.000528
SPREGHMMDALYAQVK | -0.0643
TSSAQRRLEIPSGGAD | -0.0378
KRRLDLETDHQY | 0.0587
KDDDKAWEYEERDRRS | -0.0673
KPITLDTTDFQESFVT | 0.511
RDLFDCDFGDLTPLDF | 0.561
TSPGPVLLHPSPSTTQ | -0.0118
PLRKAKRARLCSSSSS | 1.7
ESSTVSEEDYFSSHRD | 0.485
AGSAKRRLFGEDPPKE | 0.248
PFSENVSAVQKLDFSD | 0.441
ISRLFPPRTPGWHQLQ | -0.377
MNQELLSVGSKRRRTG | 1.44
TRRRLFVENDSP | 0.898
KSKHEEEEWTDDDLVE | 0.835

Some of these lines once more (sample 1):
Oligonucleotide | 7-mer Z-score
CGAGACA | 0.233
GAAGGUG | 0.0497
CCUCACC | -0.347
UCAGAGG | 0.0424
CAAUCAG | 0.0569
AGCGUCG | -0.349
CAUGGGA | 0.138
AUAAUUG | 0.037
ACGACUG | -0.00652
UACGGAU | 0.0297
UACAUUC | -0.161
GUUUAGC | -0.307
UAGACCU | -0.166
UAGCUGG | -0.0573
CCGAGGA | -0.0844
CAAUCGG | 0.0243
CCGUCUU | -0.378
